# Measurements from different studies.
# Every numbered part comes from another study and shows a few of its results, in no order. Several values in a cell are separate wells, animals, samples, runs or records. Substitutions count along the parent as printed.
# UniProt P08588, sequence (whole entry, looked up): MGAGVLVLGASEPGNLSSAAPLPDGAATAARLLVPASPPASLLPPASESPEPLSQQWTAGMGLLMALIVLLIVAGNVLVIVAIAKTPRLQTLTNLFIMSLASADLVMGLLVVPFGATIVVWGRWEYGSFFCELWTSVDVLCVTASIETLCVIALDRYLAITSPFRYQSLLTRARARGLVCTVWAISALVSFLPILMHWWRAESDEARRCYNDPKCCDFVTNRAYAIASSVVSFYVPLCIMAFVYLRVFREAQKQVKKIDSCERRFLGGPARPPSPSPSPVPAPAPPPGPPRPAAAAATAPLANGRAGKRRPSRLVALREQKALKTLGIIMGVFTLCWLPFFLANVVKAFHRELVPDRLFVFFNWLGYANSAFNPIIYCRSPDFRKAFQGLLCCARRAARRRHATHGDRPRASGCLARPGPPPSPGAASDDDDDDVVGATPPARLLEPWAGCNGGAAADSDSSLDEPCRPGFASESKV
# UniProt P62344, sequence (whole entry, looked up): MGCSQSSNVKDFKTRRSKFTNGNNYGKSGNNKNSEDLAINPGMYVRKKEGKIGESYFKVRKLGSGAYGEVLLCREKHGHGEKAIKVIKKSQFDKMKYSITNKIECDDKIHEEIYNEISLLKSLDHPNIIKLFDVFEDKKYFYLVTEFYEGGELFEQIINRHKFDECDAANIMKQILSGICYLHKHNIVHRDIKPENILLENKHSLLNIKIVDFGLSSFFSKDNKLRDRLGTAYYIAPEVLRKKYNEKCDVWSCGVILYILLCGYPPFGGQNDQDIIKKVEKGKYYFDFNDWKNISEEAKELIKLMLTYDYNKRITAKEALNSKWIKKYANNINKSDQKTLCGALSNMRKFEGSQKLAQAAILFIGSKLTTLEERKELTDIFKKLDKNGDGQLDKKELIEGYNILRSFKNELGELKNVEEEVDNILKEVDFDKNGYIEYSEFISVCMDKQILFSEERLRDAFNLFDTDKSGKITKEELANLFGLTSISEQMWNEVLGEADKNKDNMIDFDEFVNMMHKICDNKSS

# Series 1
# Target: CCNE1, cyclin fold, Cln2 fusion (human)
# Method: yeast growth competition, sequencing
# Sample: yeast
# Notes: strong parent motif
# Relative to: not given
# Direction: higher = stronger binding
# Parent: viral docking peptide; KKVKRRLFETREL; partner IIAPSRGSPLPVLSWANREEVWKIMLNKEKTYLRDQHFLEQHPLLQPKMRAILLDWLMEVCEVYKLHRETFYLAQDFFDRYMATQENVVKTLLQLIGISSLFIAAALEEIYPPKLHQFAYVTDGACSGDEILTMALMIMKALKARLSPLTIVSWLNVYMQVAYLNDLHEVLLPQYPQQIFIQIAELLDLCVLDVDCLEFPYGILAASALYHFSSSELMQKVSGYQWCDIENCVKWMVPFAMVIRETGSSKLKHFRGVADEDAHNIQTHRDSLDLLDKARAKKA
Substitution,normalised enrichment score
KKVKRRLLETREL [F8L],0.375
KKVKKRLLETREL [R5K F8L],0.232
KKVKRRLFETRAL [E12A],2.75
KKVKARAFETREL [R5A L7A],0.133

# Mixed results
Structure (SMILES),tested on,test,system,setting,endpoint,result
CN[C@@H](C)[C@H](O)c1ccccc1,"ADRB1 (Homo sapiens, UniProt P08588)",antagonist,,,IC50,≥ 100 µM
COc1cc(C(=O)N2CCC(N3CCN(C)CC3)CC2)ccc1Nc1ncc2c(n1)N(C)c1ccccc1C(=O)N2C,human PBMC,"probe labeling, inhibitor, KiNativ profiling, refers to: YAAVkIHQLNK",cell lysate,"concentration not given, LYS1 site, with: ATP acyl-phosphate probe 0.1 µM",inhibition,8.3%
COc1ccc2cc(OCC3(C(=O)O)CN(C(=O)c4ccc(F)cc4)C3)ccc2c1,"CDPK1 (Plasmodium falciparum, UniProt P62344)","cell-free assay, competition with immobilised ligand",,1 µM,remaining binding,100%
O=C1CCC(N2Cc3c(ccc4c3OCC43CCN(Cc4ccccc4)CC3)C2=O)C(=O)N1 (centres unmarked),,,"rat Sprague Dawley male, plasma","intravenous, 1.0 mg/kg",Vss,3.37 L/kg and 3.21 L/kg

# Excerpt of the above (mixed results):
Structure (SMILES),tested on,test,system,setting,endpoint,result
COc1ccc2cc(OCC3(C(=O)O)CN(C(=O)c4ccc(F)cc4)C3)ccc2c1,"CDPK1 (Plasmodium falciparum, UniProt P62344)","cell-free assay, competition with immobilised ligand",,1 µM,remaining binding,100%
